# Assay results of several laboratories.
# Numbered parts are unrelated; each lists some results of a single study. Several values in a cell are separate wells, animals, samples, runs or records.
# Chain of UniProt O76039 (whole entry, looked up): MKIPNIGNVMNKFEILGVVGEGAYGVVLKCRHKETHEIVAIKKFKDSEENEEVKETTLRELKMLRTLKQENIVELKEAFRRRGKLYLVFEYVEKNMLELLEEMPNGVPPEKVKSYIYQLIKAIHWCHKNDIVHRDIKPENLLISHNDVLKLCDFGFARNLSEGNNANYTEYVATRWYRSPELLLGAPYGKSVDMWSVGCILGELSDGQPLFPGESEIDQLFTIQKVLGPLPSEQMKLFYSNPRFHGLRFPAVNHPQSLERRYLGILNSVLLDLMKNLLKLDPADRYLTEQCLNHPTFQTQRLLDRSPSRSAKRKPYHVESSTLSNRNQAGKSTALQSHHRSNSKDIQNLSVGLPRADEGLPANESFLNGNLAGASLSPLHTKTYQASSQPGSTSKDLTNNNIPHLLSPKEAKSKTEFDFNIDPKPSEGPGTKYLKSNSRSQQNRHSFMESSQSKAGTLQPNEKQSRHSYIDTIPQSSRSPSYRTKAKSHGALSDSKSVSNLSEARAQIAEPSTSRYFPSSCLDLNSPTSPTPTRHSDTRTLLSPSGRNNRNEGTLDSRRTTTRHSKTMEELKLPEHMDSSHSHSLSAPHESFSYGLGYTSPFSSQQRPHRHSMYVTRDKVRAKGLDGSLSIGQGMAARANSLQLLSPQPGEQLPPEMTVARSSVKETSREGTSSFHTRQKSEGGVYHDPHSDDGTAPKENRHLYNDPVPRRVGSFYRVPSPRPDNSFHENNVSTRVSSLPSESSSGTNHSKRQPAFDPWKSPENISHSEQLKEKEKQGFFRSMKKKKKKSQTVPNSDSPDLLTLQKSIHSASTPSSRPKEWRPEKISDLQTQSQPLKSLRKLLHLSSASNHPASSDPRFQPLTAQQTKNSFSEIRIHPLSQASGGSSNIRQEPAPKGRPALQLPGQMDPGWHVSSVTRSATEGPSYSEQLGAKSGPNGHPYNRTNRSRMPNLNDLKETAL
# Chain of UniProt Q08345 (whole entry, looked up): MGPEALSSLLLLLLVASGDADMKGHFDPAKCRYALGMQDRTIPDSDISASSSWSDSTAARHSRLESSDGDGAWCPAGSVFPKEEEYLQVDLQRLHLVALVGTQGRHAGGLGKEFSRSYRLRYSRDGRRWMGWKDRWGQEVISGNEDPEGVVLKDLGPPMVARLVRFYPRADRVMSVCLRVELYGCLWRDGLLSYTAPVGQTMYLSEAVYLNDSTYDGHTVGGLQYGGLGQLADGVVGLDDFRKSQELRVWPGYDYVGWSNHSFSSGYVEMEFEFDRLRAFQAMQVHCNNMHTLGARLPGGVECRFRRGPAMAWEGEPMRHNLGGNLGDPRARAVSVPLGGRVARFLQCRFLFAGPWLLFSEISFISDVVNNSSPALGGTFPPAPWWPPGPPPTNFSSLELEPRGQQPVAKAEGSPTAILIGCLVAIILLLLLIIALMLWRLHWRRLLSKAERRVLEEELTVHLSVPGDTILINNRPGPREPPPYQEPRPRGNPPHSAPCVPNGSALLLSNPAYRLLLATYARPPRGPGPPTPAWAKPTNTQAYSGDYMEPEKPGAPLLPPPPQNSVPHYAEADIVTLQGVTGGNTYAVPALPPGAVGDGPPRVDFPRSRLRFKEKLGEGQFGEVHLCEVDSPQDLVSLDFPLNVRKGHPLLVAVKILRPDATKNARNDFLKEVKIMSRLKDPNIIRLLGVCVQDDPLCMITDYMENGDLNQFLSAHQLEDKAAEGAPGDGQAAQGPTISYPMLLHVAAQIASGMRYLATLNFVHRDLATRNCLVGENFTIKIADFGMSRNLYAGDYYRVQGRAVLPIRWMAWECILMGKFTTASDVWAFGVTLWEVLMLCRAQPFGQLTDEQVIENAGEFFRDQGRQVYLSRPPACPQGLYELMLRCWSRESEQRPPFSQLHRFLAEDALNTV
# Chain of UniProt P78362 (whole entry, looked up): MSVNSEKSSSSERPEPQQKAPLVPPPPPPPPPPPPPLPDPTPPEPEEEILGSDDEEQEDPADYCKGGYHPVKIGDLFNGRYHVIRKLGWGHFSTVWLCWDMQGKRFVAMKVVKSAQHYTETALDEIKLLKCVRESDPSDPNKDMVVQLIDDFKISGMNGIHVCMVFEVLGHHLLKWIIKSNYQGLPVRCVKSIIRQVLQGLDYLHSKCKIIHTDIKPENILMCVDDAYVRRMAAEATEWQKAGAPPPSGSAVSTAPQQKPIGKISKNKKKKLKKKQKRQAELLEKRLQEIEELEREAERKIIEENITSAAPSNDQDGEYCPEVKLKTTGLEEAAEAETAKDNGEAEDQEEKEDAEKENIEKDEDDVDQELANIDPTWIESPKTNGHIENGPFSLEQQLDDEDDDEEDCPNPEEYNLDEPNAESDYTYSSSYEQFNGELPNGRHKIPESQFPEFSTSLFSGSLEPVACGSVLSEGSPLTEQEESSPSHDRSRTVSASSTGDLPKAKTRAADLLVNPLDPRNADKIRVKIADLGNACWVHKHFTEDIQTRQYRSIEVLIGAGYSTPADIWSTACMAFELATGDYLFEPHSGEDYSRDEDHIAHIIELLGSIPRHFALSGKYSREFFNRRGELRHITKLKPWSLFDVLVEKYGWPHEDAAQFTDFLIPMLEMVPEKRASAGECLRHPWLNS
# Chain of UniProt O75676 (whole entry, looked up): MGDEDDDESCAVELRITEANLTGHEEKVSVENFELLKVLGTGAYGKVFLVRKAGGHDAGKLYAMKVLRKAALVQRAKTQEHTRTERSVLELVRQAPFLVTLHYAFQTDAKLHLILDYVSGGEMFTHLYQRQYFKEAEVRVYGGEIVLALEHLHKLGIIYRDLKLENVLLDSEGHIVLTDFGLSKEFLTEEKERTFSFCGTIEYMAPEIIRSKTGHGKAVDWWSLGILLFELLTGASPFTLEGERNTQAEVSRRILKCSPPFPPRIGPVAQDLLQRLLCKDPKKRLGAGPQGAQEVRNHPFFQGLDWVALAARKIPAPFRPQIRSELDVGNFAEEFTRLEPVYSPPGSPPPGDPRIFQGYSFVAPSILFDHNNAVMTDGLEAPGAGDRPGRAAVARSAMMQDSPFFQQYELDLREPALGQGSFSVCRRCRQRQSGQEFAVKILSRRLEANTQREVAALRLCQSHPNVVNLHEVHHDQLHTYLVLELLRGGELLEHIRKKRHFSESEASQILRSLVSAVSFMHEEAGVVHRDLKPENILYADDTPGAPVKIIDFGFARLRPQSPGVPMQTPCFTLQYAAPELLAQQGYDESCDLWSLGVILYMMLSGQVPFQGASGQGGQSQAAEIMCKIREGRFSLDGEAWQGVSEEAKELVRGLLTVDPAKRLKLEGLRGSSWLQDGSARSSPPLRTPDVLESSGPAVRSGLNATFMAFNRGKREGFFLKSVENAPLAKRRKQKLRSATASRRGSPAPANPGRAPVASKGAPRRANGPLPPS
# Chain of UniProt P21860 (whole entry, looked up): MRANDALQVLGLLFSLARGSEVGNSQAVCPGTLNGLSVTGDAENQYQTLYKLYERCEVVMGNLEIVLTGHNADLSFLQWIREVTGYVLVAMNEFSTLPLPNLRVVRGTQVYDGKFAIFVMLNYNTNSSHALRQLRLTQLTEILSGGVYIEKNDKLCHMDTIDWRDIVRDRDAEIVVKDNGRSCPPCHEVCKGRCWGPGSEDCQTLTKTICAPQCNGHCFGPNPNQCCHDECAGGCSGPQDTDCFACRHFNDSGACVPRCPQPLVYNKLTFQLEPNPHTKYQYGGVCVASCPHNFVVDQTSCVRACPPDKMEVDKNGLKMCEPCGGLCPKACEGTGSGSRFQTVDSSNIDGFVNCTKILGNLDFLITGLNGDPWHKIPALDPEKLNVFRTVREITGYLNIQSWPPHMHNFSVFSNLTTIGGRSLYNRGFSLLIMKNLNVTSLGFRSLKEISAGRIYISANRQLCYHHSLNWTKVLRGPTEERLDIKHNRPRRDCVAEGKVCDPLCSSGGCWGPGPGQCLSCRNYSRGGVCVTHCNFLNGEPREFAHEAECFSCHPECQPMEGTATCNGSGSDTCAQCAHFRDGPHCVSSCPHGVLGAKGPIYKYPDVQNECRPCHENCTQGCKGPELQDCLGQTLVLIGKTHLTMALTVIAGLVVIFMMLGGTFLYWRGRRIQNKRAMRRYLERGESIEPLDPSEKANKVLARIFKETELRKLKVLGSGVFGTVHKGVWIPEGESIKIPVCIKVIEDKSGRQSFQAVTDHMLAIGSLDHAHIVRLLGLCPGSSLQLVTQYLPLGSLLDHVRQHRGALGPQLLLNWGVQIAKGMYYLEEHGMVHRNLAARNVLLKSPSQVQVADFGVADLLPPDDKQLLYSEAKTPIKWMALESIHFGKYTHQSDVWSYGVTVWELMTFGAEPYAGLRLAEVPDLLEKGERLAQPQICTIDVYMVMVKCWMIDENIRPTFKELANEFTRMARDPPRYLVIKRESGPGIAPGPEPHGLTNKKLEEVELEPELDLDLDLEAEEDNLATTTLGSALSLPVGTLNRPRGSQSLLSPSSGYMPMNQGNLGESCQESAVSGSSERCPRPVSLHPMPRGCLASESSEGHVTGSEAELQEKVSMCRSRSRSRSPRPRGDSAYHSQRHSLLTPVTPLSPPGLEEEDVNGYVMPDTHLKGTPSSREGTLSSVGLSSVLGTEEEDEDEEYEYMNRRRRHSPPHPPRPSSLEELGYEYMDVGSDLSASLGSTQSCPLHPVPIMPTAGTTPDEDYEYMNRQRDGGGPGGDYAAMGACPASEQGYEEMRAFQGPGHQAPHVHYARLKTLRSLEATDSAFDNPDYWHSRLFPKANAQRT

# Set 1
# Species: human
# Matrix: microsomes or S9
# Concentration: 2 µM
# Time: 0.5 h
Compound,remaining compound
Cc1noc(C)c1Cc1c(C(=O)N2CCC(C3CCNC3)CC2)noc1C (stereo not drawn),61.9%
O=C(Nc1ncc(Cl)cc1Cl)c1cc2ncccn2n1,78.9%
O=C(NCc1cccnc1)c1c(OCC2CC2)cc(=O)n2c1CCOCC2,84.9%
Cc1cc(C)c(C)c(OCCCN2CCOCC2)c1,93.2%
COCCn1c(C)cc(C)c(C(=O)Nc2nc(COC)n[nH]2)c1=O,88.3%

# Set 2
# Cell line: A-375
# Concentration: 100 µM
# Time: 36 h
Compound,viability
CCOC(=O)C(C)(C)Oc1ccc(Cl)cc1,84.4%
Cn1cc[nH]c1=S,113%
CCCCc1ncc(/C=C(\Cc2cccs2)C(=O)O)n1Cc1ccc(C(=O)O)cc1,118%
Cn1c(=O)c2[nH]cnc2n(C)c1=O,82.1% and 117% and 66.5%
CC(c1cc2ccccc2s1)N(O)C(N)=O (stereo not drawn),107%
Nc1ccn([C@@H]2O[C@H](CO)[C@@H](O)[C@@H]2O)c(=O)n1,28.7%

# Set 3
# SMILES: COc1ccc2cc(OCC3(C(=O)O)CN(C(=O)c4ccc(F)cc4)C3)ccc2c1
# Observed: cell-free assay
# Technique: competition with immobilised ligand
# Concentration: 1 µM
target,remaining binding [%]
"Epithelial discoidin domain-containing receptor 1 (DDR1, Homo sapiens, UniProt Q08345)",100
"Cyclin-dependent kinase-like 5 (CDKL5, Homo sapiens, UniProt O76039)",97
"Citron Rho-interacting kinase (CIT, Homo sapiens, UniProt O14578)",100
"Receptor tyrosine-protein kinase erbB-3 (ERBB3, Homo sapiens, UniProt P21860)",89
"Ribosomal protein S6 kinase alpha-4, C-terminal kinase domain (RPS6KA4, Homo sapiens, UniProt O75676)",85
"SRSF protein kinase 2 (SRPK2, Homo sapiens, UniProt P78362)",84

# Mixed results
SMILES,matrix,endpoint,result
CCC[C@H]1NC(=O)CSC[C@@H](C(=O)OCC)N(C)C(=O)[C@H](CC(C)C)NC(=O)[C@H](C)N(C)C(=O)[C@@H](CC(C)C)NC(=O)[C@H](C)N(C)C(=O)[C@H]2CCCN2C(=O)[C@H](CC(C)C)NC(=O)CN(CCC)C1=O,hydrocarbon/water,logD,1.05

# Some of these lines once more (set 3):
target,remaining binding [%]
"Citron Rho-interacting kinase (CIT, Homo sapiens, UniProt O14578)",100
"Receptor tyrosine-protein kinase erbB-3 (ERBB3, Homo sapiens, UniProt P21860)",89
